Measured values collected from several papers.
Protocols differ between the studies behind these lines. ± gives the spread as reported.
gag-pol K652R reverse transcriptase: Gag-Pol polyprotein, reverse transcriptase (gag-pol, Human immunodeficiency virus type 1 group M subtype B, UniProt P04585, K652R)
gag-pol D654N/K657R/K806Q/T802F reverse transcriptase: Gag-Pol polyprotein, reverse transcriptase (gag-pol, Human immunodeficiency virus type 1 group M subtype B, UniProt P04585, D654N/K657R/K806Q/T802F)
gag-pol integrase: Gag-Pol polyprotein, integrase (gag-pol, Human immunodeficiency virus type 1 group M subtype B, UniProt P04585)
Spike glycoprotein: Spike glycoprotein (Severe acute respiratory syndrome coronavirus 2, UniProt P0DTC2)

SMILES = Cc1cn([C@H]2C[C@H](N=[N+]=[N-])[C@@H](CO[P@](=O)(O)O[P@](=O)(O)OP(=O)(O)O)O2)c(=O)[nH]c1=O; tested on = gag-pol K652R reverse transcriptase; assay = inhibitor; system = HIV-1; quantity = IC50; value = 0.4539 ± 0.00144 µM
SMILES = Nc1ncnc2c([C@@H]3N[C@H](CO)[C@@H](O)[C@H]3O)c[nH]c12; tested on = Marburg virus; assay = viral RNA in cell lysate; system = HeLa, Musoke; setting = 6.3 µM, 1 h; quantity = inhibition; value = 73.3%
SMILES = O=P(O)(O)C(Nc1cccc(-c2cc(F)cc(F)c2)c1)P(=O)(O)O; tested on = gag-pol D654N/K657R/K806Q/T802F reverse transcriptase; quantity = IC50; value = 2 µM
SMILES = CNC(=O)[C@@H](NC(=O)[C@H](CC(C)C)[C@H](O)C(=O)NO)C(C)(C)C; system = mouse; setting = 60 µg/mouse, observed up to 0 h, together with: Daboia russelii venom, Southeast, preincubated; quantity = time of death; value = > 24 h
SMILES = O=P(O)(O)C(O)(Cc1cccc(-c2cc(F)ccc2F)c1)P(=O)(O)O; tested on = gag-pol D654N/K657R/K806Q/T802F reverse transcriptase; quantity = IC50; value = 1.58 µM
SMILES = O=C(O)c1ccc(-c2cccc(/C=N/NC(=O)c3ccc(O)c(O)c3)c2)cc1; tested on = Gag-Pol polyprotein, reverse transcriptase A502G (gag-pol, Human immunodeficiency virus type 1 group M subtype B, UniProt P04585, A1089G); assay = RNase H activity, inhibitor; system = HIV-1; quantity = IC50; value = 4.2 ± 1.1 µM
SMILES = Oc1ccc(C2CNCc3sccc32)cc1O (stereo not shown); tested on = gag-pol integrase; assay = enzyme activity, inhibitor; quantity = IC50; value = > 25 µM
SMILES = COc1c(/C=C/C(=O)c2ccc(O)cc2)ccc(O)c1O; tested on = Spike glycoprotein; assay = binding, biolayer interferometry; quantity = Kd; value = 118 µM
SMILES = COc1ccc2ccccc2c1/C=N/NC(=O)c1ccc(O)c(O)c1; tested on = Gag-Pol polyprotein, reverse transcriptase A502G/D256G (gag-pol, Human immunodeficiency virus type 1 group M subtype B, UniProt P04585, A1089G/D843G); assay = RNase H activity, inhibitor; system = HIV-1; quantity = IC50; value = > 50 µM
SMILES = CC(N)(Cc1ccc(O)c(O)c1)C(=O)O (racemic); tested on = gag-pol integrase; assay = enzyme activity, inhibitor; quantity = IC50; value = > 25 µM
SMILES = C[C@H](Cn1cnc2c(N)ncnc21)OCP(=O)(O)O; tested on = gag-pol K652R reverse transcriptase; assay = inhibitor; system = HIV-1; quantity = IC50; value = 2.531 ± 0.00116 µM
SMILES = O=C1c2c(O)cccc2C([C@@H]2O[C@H](CO)[C@@H](O)[C@H](O)[C@H]2O)c2cc(CO)cc(O)c21 (stereo partly shown); tested on = Spike glycoprotein; assay = binding, BLI; quantity = Kd; value = 50.9 µM
SMILES = O=C(O)c1ccc(-c2cccc(/C=N/NC(=O)c3cc(O)c(O)c(O)c3)c2)cc1; tested on = Gag-Pol polyprotein, reverse transcriptase I505V (gag-pol, Human immunodeficiency virus type 1 group M subtype B, UniProt P04585, I1092V); assay = RNase H activity, inhibitor; system = HIV-1; quantity = IC50; value = 0.3 ± 0.3 µM
SMILES = Cn1cnc(Cn2c(=O)[nH]/c(=N\c3cc4cn(C)nc4cc3Cl)n(Cc3cc(F)c(F)cc3F)c2=O)n1; system = human, moderate renal impairment; setting = oral, 375 mg, vessel puncture site haemorrhage TEAE, Mild severity; quantity = patients with adverse event; value = 12.5%
SMILES = CCCCCCc1ccc(NC(P(=O)(O)O)P(=O)(O)O)cc1; tested on = gag-pol D654N/K657R/K806Q/T802F reverse transcriptase; quantity = IC50; value = > 100 µM
SMILES = Cc1cn([C@H]2C=C[C@@H](COP(=O)(O)OP(=O)(O)OP(=O)(O)O)O2)c(=O)[nH]c1=O; tested on = Gag-Pol polyprotein, reverse transcriptase (gag-pol, Human immunodeficiency virus type 1 group M subtype B, UniProt P04585, K653N); assay = inhibitor; system = HIV-1; quantity = IC50; value = 8.64 ± 1.23 µM
SMILES = O=P(O)(O)C(O)(Cn1ccnc1)P(=O)(O)O; tested on = gag-pol D654N/K657R/K806Q/T802F reverse transcriptase; assay = inhibitor, biochemical; quantity = IC50; value = ≥ 100 µM
SMILES = COc1ccc(C(=O)Nc2sc3c(c2C(=O)Nc2ccccn2)CCCCC3)cc1OC; tested on = Gag-Pol polyprotein, reverse transcriptase p51 C280A (gag-pol, Human immunodeficiency virus type 1 group M subtype B, UniProt P04585, C867A); quantity = IC50; value = > 50 µM
SMILES = CC[C@H](C)[C@H](NC(=O)[C@H](CC(C)C)NC(=O)[C@H](Cc1c[nH]c2ccccc12)NC(=O)[C@H](CCC(N)=O)NC(=O)[C@@H](NC(=O)[C@H](Cc1ccccc1)NC(=O)[C@H](C)NC(=O)[C@H](CCCCNC(=O)COCCOCCNC(=O)COCCOCCNC(=O)CC[C@H](NC(=O)CCCCCCCCCCCCCCCCCCC(=O)O)C(=O)O)NC(=O)[C@H](CCC(N)=O)NC(=O)[C@H](C)NC(=O)[C@@H](NC(=O)[C@H](CCCCN)NC(=O)[C@H](CC(=O)O)NC(=O)[C@H](CC(C)C)NC(=O)C(C)(C)NC(=O)[C@@H](NC(=O)[C@H](CO)NC(=O)[C@H](Cc1ccc(O)cc1)NC(=O)[C@H](CC(=O)O)NC(=O)[C@H](CO)NC(=O)[C@@H](NC(=O)[C@H](Cc1ccccc1)NC(=O)[C@@H](NC(=O)CNC(=O)[C@H](CCC(=O)O)NC(=O)C(C)(C)NC(=O)[C@@H](N)Cc1ccc(O)cc1)[C@@H](C)O)[C@@H](C)O)[C@@H](C)CC)[C@@H](C)CC)C(C)C)C(=O)N[C@@H](C)C(=O)NCC(=O)NCC(=O)N1CCC[C@H]1C(=O)N[C@@H](CO)C(=O)N[C@@H](CO)C(=O)NCC(=O)N[C@@H](C)C(=O)N1CCC[C@H]1C(=O)N1CCC[C@H]1C(=O)N1CCC[C@H]1C(=O)N[C@@H](CO)C(N)=O; assay = measured: anti-drug antibodies; system = patients with type 2 diabetes; setting = 5/5/10/15 mg escalating, baseline, evaluable subjects; quantity = subjects ADA-positive at baseline; value = 41.7%

Excerpt of the above:
SMILES = O=C(O)c1ccc(-c2cccc(/C=N/NC(=O)c3cc(O)c(O)c(O)c3)c2)cc1; tested on = Gag-Pol polyprotein, reverse transcriptase I505V (gag-pol, Human immunodeficiency virus type 1 group M subtype B, UniProt P04585, I1092V); assay = RNase H activity, inhibitor; system = HIV-1; quantity = IC50; value = 0.3 ± 0.3 µM
SMILES = C[C@H](Cn1cnc2c(N)ncnc21)OCP(=O)(O)O; tested on = gag-pol K652R reverse transcriptase; assay = inhibitor; system = HIV-1; quantity = IC50; value = 2.531 ± 0.00116 µM
SMILES = Cn1cnc(Cn2c(=O)[nH]/c(=N\c3cc4cn(C)nc4cc3Cl)n(Cc3cc(F)c(F)cc3F)c2=O)n1; system = human, moderate renal impairment; setting = oral, 375 mg, vessel puncture site haemorrhage TEAE, Mild severity; quantity = patients with adverse event; value = 12.5%
